Assay results from different studies.
Several values in a cell are separate wells, animals, samples, runs or records. Numbers after ± are the reported error.

SMILES	test	test system	setting	how to read	measurement	result
COc1ncccc1-c1cnn2ccc(N3CCN(C(=O)OC(C)C)CC3)nc12	–	mouse nerve ligation model, plasma	oral, 10 mg/kg, 30 min after last dose, repeat dosing day 2	–	drug concentration	3.6 µM
CCc1ccc(CC/C=C/c2ccc3c(c2)C(=O)CC3)cc1	–	Sprague-Dawley rat, female	oral, 30 mg/kg/day, 14 days	–	Phosphorus	2.43 mM
C[C@H]1C[C@@H](N2C(=N)N[C@](C)(c3cccc(NC(=O)c4cccc(C#N)c4)c3Cl)CC2=O)CCO1	–	rat	500 mg/kg, every other day	–	phosphorus change	-10%
CCN1[C@@H](C(=O)NC23CCC(C(=O)O)(CC2)CC3)[C@H](c2cccc(Cl)c2F)[C@]2(C(=O)Nc3cc(Cl)ccc32)C12CCCCC2	–	patients with advanced solid tumours	oral, 100 mg	–	grade ≥3 febrile neutropenia incidence	0%
CC(C)CC(=O)OC[C@H]1O[C@@](C#N)(c2ccc3c(N)ncnn23)[C@H](O)[C@@H]1O	plasma protein binding	human plasma	0.9 µM, time not given	–	recovery	102%
CC(=O)c1c(C)c2cnc(Nc3ccc(C4CCN(CCS(C)(=O)=O)CC4)cn3)nc2n(C2CCCC2)c1=O	–	HR+/HER2- advanced breast cancer patients	oral, dose not given, all grades	–	ALT increased	25.9%
O=S(=O)(c1ccc(O)cc1)c1ccc(O)cc1	–	control solution without PVC	120 h, pH 7.0, 298 K, initial 0.5 mg/L, 200 rpm	–	equilibrium concentration	0.487 ± 0.02 mg/L
COc1ccc2nc3cc(Cl)ccc3c(Nc3cc(CN4CCCC4)c(O)c(CN4CCCC4)c3)c2n1	–	mouse, blood	intraperitoneal, 28 mg/kg	–	white blood cell count	8.66 10⁹/L
COc1cccc(Oc2ccccc2NC(=O)CNC(=O)c2cccc3ccccc23)c1	–	esterase-deficient SCID mice, male, blood	oral, 100 mg/kg/day, 14 days, toxicity study	relative to: white cells	lymphocytes	24% and 18.8% and 27.2%
Cc1cccc(Cn2nc(C3CC3)c3c(NC(=O)c4cnc5cc(OCCN6CCN(C)CC6)ccn45)cccc32)n1	item: Vomiting	human advanced solid tumours	oral, dose not given, all-causality,, all doses	–	adverse events incidence	21.1%
CO[C@H]1C[C@@H]2CC[C@@H](C)[C@@](O)(O2)C(=O)C(=O)N2CCCC[C@H]2C(=O)O[C@H]([C@H](C)C[C@@H]2CC[C@@H](OC(=O)NCCOCCOCCOCCOCCOCCOCCOCCOCCC(=O)N3CCc4cc(Cn5nc(-c6ccc7oc(N)nc7c6)c6c(N)ncnc65)ccc4C3)[C@H](OC)C2)C[C@@H](O)[C@H](C)/C=C(\C)[C@@H](O)[C@@H](OC)C(=O)[C@H](C)C[C@H](C)/C=C/C=C/C=C/1C	phase 1 dose escalation, item: fatigue	advanced solid tumour patients	intravenous, 16 mg weekly, grade ≥3	–	TRAE incidence	0%
C[C@@H]1NC(=O)[C@H](CCCCNC(=O)CO/N=C/C(=O)NCCCC[C@@H]2NC(=O)[C@@H](Cc3ccccc3)NC(=O)[C@H](CC(=O)O)NC(=O)CNC(=O)[C@H](CCCNC(=N)N)NC2=O)NC(=O)CNC(=O)[C@@H]2CCCN2C(=O)[C@H](CCCCNC(=O)CO/N=C/C(=O)NCCCC[C@@H]2NC(=O)[C@@H](Cc3ccccc3)NC(=O)[C@H](CC(=O)O)NC(=O)CNC(=O)[C@H](CCCNC(=N)N)NC2=O)NC(=O)[C@H](CCCCNC(=O)CN2CCCNCCNCCCNCC2)NC(=O)[C@H](CCCCNC(=O)CO/N=C/C(=O)NCCCC[C@@H]2NC(=O)[C@@H](Cc3ccccc3)NC(=O)[C@H](CC(=O)O)NC(=O)CNC(=O)[C@H](CCCNC(=N)N)NC2=O)NC(=O)CNC(=O)[C@@H]2CCCN2C(=O)[C@H](CCCCNC(=O)CO/N=C/C(=O)NCCCC[C@@H]2NC(=O)[C@@H](Cc3ccccc3)NC(=O)[C@H](CC(=O)O)NC(=O)CNC(=O)[C@H](CCCNC(=N)N)NC2=O)NC1=O [copper-64 labelled]	biodistribution after PET	mouse, U-87 MG tumour xenograft, kidney	intravenous, 24 h	–	tissue uptake	15.9 ± 3.48 %ID/g
NCCCC[C@@H]1NC(=O)[C@@H](Cc2c[nH]c3ccccc23)NC(=O)[C@H](c2ccccc2)NC(=O)[C@@H]2C[C@@H](OC(=O)NCCN)CN2C(=O)[C@H](Cc2ccccc2)NC(=O)[C@H](Cc2ccc(OCc3ccccc3)cc2)NC1=O	–	healthy human volunteers	600 µg twice daily	–	subjects with decreased appetite	4%

Repeated from above:
SMILES	test	test system	setting	how to read	measurement	result
CC(=O)c1c(C)c2cnc(Nc3ccc(C4CCN(CCS(C)(=O)=O)CC4)cn3)nc2n(C2CCCC2)c1=O	–	HR+/HER2- advanced breast cancer patients	oral, dose not given, all grades	–	ALT increased	25.9%
O=S(=O)(c1ccc(O)cc1)c1ccc(O)cc1	–	control solution without PVC	120 h, pH 7.0, 298 K, initial 0.5 mg/L, 200 rpm	–	equilibrium concentration	0.487 ± 0.02 mg/L
